{"data": "Measurements from different studies", "OPRM1": "Mu-type opioid receptor (OPRM1, Homo sapiens, UniProt P35372)", "note": "Compare with care: the assays were run in different laboratories. ± marks the error that the study gave.", "sequence of UniProt P35372 (whole entry, looked up)": "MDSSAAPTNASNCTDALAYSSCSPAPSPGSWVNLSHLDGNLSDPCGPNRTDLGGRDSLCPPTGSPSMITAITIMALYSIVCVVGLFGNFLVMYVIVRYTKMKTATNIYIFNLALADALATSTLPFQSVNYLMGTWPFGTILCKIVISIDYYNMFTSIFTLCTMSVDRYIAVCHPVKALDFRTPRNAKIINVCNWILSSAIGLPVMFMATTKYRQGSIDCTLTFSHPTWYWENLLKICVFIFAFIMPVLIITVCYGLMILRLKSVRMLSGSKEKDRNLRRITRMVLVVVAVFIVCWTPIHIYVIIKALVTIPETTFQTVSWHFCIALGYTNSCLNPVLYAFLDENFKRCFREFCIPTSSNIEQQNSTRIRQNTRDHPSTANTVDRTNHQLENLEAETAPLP"}
{"SMILES": "CS(C)(=O)=Nc1ccc(-c2ccc(-c3nc4cc(O[C@@H]5CO[C@H]6[C@@H]5OC[C@H]6O)[nH]c4cc3F)cc2)cc1", "target": "OPRM1", "assay": "calcium signal, antagonist", "conditions": "10 µM", "quantity": "inhibition", "result": "15%"}
{"SMILES": "Cc1cc(Nc2nc(C[C@@]3(C(=O)O)CCN(Cc4cccc(Cl)c4F)[C@H](C)C3)cc(C)c2F)[nH]n1", "target": "OPRM1", "assay": "inhibitor", "conditions": "10 µM", "quantity": "inhibition", "result": "13.7%"}
{"SMILES": "N[C@H](C(=O)N1CCCC1)C1CCN(c2nccc3c(-c4ncc(Cl)cc4Cl)cccc23)CC1", "target": "OPRM1", "assay": "functional response, agonist", "conditions": "10 µM", "quantity": "response", "result": "-12%"}
{"SMILES": "CN[C@@H]1[C@H](O)[C@H](NC)[C@H]2O[C@]3(O)[C@H](O[C@@H]2[C@H]1O)O[C@H](C)C[C@H]3NC(=O)Cc1cc(Cl)ccn1", "target": "OPRM1", "assay": "ligand displacement, radioligand", "conditions": "10 µM", "quantity": "inhibition", "result": "-5%"}
{"SMILES": "C/C(=N\\OCCCN1CCCCC1)c1ccc(C(F)(F)F)cc1", "target": "OPRM1", "assay": "antagonist, cAMP", "conditions": "10 µM", "quantity": "inhibition", "result": "6.56%"}
{"SMILES": "C[C@@H](Cc1ccsc1)NC(=O)NC[C@H](Cc1ccc(O)cc1)N(C)C", "target": "Mu-type opioid receptor, with Gi3 (OPRM1, Homo sapiens, UniProt P35372)", "assay": "receptor activation, agonist", "quantity": "Emax", "result": "68 ± 7%"}
{"SMILES": "Cc1cc(-c2ccc3ccccc3c2)nnc1NCCN1CCN(C)CC1", "target": "OPRM1", "assay": "antagonist", "conditions": "concentration not given", "quantity": "antagonist activity", "result": "negative"}
{"SMILES": "CCCCCCCCCCCCCCCCCC(=O)NC[C@H]1CC[C@H](C(=O)N[C@@H](CCC(=O)NCCCOCCOCCOCCCNC(=O)COCC(=O)N[C@@H](Cc2ccc(O)cc2)C(=O)NC(C)(Cc2ccccc2)C(=O)N[C@@H](CC(C)C)C(=O)N[C@@H](CCCC)C(=O)N[C@@H](CCCNC(=N)N)C(=O)N2CCC[C@H]2C(=O)N[C@@H](CCCNC(=N)NC)C(=O)N[C@@H](CC(N)=O)C(N)=O)C(=O)O)CC1 (some centres unmarked)", "target": "OPRM1", "assay": "antagonist, DiscoverX GPCR panel", "conditions": "1 µM", "quantity": "inhibition", "result": "78%"}
{"SMILES": "COc1ccc2c(c1)[C@]13CCCC[C@@H]1[C@H](C2)N(C)CC3", "target": "OPRM1", "assay": "ligand displacement, radioligand", "conditions": "10 µM", "quantity": "inhibition", "result": "75.3%"}
{"SMILES": "CN(C)[C@H](CNC(=O)/C=C/c1cccc2ccccc12)Cc1ccc(O)cc1", "target": "Mu-type opioid receptor, with Gz (OPRM1, Homo sapiens, UniProt P35372)", "assay": "receptor activation, agonist", "quantity": "Emax", "result": "80 ± 3%"}
{"SMILES": "O=C(Cc1ccc(Cl)c(Cl)c1)N1CCNC2COCC(N3CCCC3)C21 (centres unmarked)", "target": "OPRM1", "assay": "radioligand binding", "conditions": "up to 20 µM, added: [3H]DAMGO", "quantity": "inhibition", "result": "≤ 50%"}
{"SMILES": "COc1cc2c(cc1NC(=O)c1cncn1C)C[C@H]1[C@H]3CCCC[C@@]23CCN1C", "target": "OPRM1", "assay": "ligand displacement, radioligand", "conditions": "1 µM", "quantity": "inhibition", "result": "9.6%"}
{"SMILES": "COc1ccc(F)cc1S(=O)(=O)Nc1cnc2c(c1)C(=O)NCCO2", "target": "OPRM1", "assay": "ligand displacement, radioligand", "conditions": "10 µM", "quantity": "inhibition", "result": "-7%"}
{"SMILES": "C[C@H](NCc1ccc(-c2ccc(C(F)(F)F)cc2)cc1)C(N)=O", "target": "OPRM1", "assay": "radioligand binding, SafetyScreen panel", "conditions": "1 µM, species human, added: 0.60 nM [3H]Diprenorphine", "quantity": "inhibition", "result": "14%"}
{"SMILES": "Cc1sc2c(c1C)C(c1ccc(Cl)cc1)=NC(CC(=O)OC(C)(C)C)c1nnc(C)n1-2 (centres unmarked)", "target": "OPRM1", "assay": "ligand displacement, radioligand", "conditions": "1 µM", "quantity": "inhibition", "result": "-4%"}
{"SMILES": "COc1cc2c(cc1-n1ccnc1)C[C@H]1[C@H]3CCCC[C@@]23CCN1C", "target": "OPRM1", "assay": "ligand displacement, radioligand", "conditions": "10 µM", "quantity": "inhibition", "result": "77.9%"}
{"SMILES": "CCOC(=O)[C@](CC)(CCCSCCOCCOCCNC(=O)c1ccc(-c2c3ccc(=N)c(S(=O)(=O)O)c-3oc3c(S(=O)(=O)O)c(N)ccc23)c(C(=O)O)c1)NC(=O)c1ccc(C2CC2)c(Cc2ccc(F)cc2)n1", "target": "OPRM1", "assay": "ligand displacement, radioligand", "conditions": "10 µM", "quantity": "inhibition", "result": "0%"}
{"note": "Some of these lines once more:"}
{"SMILES": "COc1cc2c(cc1NC(=O)c1cncn1C)C[C@H]1[C@H]3CCCC[C@@]23CCN1C", "target": "OPRM1", "assay": "ligand displacement, radioligand", "conditions": "1 µM", "quantity": "inhibition", "result": "9.6%"}
{"SMILES": "CN(C)[C@H](CNC(=O)/C=C/c1cccc2ccccc12)Cc1ccc(O)cc1", "target": "Mu-type opioid receptor, with Gz (OPRM1, Homo sapiens, UniProt P35372)", "assay": "receptor activation, agonist", "quantity": "Emax", "result": "80 ± 3%"}
